# Measured values pooled from the literature.
# Compare with care: the assays were run in different laboratories. ± marks the error that the study gave.
# HCRTR1: Orexin/Hypocretin receptor type 1 (HCRTR1, Homo sapiens, UniProt O43613)
# UniProt O43613, sequence (whole entry, looked up): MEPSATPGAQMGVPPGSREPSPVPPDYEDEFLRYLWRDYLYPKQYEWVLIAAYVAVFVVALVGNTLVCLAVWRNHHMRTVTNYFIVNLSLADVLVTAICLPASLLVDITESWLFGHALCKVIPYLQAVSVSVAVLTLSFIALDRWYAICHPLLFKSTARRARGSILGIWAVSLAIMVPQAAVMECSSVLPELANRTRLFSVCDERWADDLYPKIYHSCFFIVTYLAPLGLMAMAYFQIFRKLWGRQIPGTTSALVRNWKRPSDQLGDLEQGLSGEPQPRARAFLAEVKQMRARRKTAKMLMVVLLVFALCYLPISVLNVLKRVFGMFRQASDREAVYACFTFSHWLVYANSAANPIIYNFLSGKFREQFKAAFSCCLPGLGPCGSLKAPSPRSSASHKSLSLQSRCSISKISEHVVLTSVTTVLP
# PPIA: Peptidyl-prolyl cis-trans isomerase A (PPIA, Homo sapiens, UniProt P62937)
# UniProt P62937, sequence (whole entry, looked up): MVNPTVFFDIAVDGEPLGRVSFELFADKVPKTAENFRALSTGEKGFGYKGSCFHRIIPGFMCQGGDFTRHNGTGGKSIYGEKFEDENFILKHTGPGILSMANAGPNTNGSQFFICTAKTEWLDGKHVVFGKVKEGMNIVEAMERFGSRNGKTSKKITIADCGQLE
# GRB2: Growth factor receptor-bound protein 2 (GRB2, Homo sapiens, UniProt P62993)
# LRP1 CR8 domain: LRP1, CR8 domain (Homo sapiens, UniProt Q07954)
# UniProt Q07954, sequence (whole entry, unmodified, looked up): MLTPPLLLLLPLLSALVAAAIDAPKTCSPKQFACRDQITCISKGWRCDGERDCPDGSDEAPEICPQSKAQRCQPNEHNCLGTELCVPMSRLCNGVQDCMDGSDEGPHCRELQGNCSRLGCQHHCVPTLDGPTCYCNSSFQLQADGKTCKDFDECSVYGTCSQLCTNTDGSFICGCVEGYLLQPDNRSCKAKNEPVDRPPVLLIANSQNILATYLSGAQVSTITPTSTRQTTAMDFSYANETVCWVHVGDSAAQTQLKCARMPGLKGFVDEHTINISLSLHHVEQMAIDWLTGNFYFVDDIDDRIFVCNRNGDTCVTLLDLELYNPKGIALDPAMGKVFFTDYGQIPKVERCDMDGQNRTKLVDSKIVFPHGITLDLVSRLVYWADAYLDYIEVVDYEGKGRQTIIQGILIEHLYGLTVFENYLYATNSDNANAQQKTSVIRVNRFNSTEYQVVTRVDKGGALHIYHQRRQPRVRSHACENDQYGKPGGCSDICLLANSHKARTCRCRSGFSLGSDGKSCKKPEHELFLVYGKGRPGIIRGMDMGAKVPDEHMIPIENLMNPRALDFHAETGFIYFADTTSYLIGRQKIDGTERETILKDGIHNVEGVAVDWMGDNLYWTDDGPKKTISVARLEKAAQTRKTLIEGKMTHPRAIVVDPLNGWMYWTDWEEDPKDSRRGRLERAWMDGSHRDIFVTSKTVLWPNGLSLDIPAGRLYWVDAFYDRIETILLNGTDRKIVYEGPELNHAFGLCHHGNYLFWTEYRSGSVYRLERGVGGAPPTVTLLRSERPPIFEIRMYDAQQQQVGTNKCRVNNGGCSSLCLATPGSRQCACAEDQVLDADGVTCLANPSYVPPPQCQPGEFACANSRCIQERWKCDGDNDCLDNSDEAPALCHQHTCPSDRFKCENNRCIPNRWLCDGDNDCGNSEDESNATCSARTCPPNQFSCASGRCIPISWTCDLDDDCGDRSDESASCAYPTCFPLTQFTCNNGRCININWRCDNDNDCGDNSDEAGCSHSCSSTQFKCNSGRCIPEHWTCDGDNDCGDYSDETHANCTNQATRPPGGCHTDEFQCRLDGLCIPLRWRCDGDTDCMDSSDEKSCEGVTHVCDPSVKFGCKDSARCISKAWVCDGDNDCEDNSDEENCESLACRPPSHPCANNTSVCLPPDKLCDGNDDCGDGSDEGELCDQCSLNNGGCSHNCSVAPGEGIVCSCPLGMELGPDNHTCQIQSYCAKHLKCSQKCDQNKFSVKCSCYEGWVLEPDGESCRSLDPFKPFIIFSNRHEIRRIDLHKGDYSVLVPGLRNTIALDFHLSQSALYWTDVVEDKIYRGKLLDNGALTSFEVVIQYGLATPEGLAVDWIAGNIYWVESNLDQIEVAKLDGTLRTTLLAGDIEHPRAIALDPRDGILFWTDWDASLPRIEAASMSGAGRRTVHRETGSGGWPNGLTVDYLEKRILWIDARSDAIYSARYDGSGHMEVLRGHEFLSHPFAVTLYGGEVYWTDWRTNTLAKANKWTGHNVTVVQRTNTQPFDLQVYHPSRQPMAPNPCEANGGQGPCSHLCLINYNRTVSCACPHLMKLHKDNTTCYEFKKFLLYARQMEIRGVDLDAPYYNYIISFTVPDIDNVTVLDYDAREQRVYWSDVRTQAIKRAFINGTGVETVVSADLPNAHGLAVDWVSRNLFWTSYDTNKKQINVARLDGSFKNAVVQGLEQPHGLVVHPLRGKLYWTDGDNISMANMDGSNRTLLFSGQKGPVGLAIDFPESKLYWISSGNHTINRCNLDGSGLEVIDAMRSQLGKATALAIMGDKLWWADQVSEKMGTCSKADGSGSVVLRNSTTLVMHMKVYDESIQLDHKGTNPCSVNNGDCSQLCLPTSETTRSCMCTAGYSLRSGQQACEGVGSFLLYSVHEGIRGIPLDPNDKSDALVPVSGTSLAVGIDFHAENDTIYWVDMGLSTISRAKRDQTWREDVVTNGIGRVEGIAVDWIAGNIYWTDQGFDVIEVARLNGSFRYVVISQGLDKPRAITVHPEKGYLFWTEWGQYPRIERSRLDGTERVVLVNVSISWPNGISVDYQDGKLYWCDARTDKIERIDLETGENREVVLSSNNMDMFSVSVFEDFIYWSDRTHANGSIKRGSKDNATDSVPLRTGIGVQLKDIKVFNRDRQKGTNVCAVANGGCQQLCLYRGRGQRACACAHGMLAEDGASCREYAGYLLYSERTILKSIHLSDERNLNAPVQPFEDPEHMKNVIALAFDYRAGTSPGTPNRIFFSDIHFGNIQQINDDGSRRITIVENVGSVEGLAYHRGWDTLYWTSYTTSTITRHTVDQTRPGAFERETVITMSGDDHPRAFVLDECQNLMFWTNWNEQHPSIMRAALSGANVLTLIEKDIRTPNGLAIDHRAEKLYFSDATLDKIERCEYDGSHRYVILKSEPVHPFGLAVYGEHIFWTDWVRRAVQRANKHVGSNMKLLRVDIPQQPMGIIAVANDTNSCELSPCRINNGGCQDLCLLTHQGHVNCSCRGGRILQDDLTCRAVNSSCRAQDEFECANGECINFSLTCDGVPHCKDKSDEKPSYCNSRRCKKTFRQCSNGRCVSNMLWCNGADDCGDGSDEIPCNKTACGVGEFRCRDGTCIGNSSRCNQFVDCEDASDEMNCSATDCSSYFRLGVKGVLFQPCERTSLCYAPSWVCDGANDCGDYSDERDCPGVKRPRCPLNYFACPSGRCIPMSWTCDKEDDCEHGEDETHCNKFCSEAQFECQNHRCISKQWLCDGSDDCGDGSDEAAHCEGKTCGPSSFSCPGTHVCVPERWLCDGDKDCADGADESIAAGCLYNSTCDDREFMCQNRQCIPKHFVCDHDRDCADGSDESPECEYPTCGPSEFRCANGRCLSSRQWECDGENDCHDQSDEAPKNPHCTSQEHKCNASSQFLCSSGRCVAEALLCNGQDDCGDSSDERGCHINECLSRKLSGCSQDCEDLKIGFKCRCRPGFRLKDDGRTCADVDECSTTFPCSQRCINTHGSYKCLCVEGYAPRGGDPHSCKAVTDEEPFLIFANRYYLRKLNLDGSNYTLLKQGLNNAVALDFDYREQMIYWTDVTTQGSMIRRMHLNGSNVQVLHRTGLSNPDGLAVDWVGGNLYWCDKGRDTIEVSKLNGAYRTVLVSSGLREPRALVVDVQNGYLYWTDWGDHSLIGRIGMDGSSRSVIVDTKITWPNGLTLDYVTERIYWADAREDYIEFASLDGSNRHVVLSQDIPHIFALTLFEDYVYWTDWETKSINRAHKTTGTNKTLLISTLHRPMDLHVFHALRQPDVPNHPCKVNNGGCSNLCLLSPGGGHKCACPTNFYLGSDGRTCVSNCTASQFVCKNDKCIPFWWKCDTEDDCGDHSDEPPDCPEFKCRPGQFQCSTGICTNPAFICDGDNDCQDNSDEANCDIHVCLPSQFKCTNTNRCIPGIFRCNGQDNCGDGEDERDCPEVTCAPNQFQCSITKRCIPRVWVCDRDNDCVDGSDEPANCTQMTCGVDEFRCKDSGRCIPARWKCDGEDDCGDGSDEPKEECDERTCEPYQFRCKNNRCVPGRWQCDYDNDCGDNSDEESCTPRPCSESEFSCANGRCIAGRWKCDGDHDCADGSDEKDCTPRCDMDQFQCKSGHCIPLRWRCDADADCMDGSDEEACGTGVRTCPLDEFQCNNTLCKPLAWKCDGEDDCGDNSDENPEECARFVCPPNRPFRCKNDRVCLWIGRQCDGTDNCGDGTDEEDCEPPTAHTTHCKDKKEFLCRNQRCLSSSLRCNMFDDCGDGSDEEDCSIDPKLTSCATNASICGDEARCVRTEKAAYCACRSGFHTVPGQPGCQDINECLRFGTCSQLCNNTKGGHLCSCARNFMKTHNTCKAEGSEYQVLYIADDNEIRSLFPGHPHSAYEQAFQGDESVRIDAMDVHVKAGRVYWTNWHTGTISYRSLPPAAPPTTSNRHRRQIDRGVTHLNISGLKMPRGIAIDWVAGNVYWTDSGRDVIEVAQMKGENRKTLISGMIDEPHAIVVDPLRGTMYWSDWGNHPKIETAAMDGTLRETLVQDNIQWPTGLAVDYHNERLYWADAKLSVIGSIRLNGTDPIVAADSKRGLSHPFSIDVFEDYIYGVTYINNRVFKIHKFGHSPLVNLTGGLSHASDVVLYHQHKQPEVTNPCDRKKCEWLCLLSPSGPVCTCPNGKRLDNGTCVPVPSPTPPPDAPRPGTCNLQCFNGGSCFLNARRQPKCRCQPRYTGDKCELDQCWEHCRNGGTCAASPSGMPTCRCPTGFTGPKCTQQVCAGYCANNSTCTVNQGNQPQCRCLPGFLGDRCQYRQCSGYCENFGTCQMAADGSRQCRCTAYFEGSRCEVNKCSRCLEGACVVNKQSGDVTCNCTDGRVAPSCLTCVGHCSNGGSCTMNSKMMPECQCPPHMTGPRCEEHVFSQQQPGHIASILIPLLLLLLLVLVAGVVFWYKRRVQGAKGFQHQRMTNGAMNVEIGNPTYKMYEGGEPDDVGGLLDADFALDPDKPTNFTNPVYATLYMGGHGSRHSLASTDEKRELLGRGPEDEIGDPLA
# B1: Rad9 754–931 (S. cerevisiae); sequence looked up; chain GKDSKEQSYVFPEGIRTADNSFLSKDDIIFGNAVWCQYTWNYKFYPGILLEVDTNQDGCWIYFETGRSLTKDEDIYYLDIRIGDAVTFDGNEYVVVGLECRSHDLNIIRCIRGYDTVHLKKKNASGLLGKRTLIKALSSISLDLSEWAKRAKIILEDNEKNKGDAYRYLRHPIRGRKS
Substance,tested on,assay,test system,conditions,endpoint,result
O=c1cc[nH]c(=O)[nH]1,Trichomonas vaginalis,"transport, item: nucleoside transporter",,added: thymidine,Ki,> 1000 µM
CCCCCOc1ccc(COc2cccc(O)c2C(=O)O)cc1,"ALOX5 (Homo sapiens, UniProt P09917)","enzyme activity, activator, Michaelis-Menten kinetics",,"binding to free enzyme, added: linoleic acid",Kd,8.65 µM
COc1ccc(CC2c3cc(OC)c(OC)cc3CCN2CC(=O)NCc2ccc(N(C)C)cc2)cc1OC (stereo not drawn),HCRTR1,,,,Kd,3.23 ± 1.3 µM
Cn1cc(NC(=O)c2cc(NC(=O)c3cc(NC=O)cn3C)cn2C)cc1C(=O)NCCC(=N)N,HIV-1 SL4 RNA stem-loop,"binding, ESI-FTMS titration",,pH 7.5,Kd,57.9 ± 3.5 µM
CC(C)C[C@H](NC(=O)[C@H](CCCNC(=N)N)NC(=O)[C@@H](N)CC(N)=O)C(=O)N[C@@H](CC(C)C)C(=O)N[C@H](C(=O)NCC(=O)O)[C@@H](C)O,"dnaK (Escherichia coli, UniProt P0A6Y8)","peptide binding, surface plasmon resonance",,added: ATP,Kd,0.891 µM
CCCCCCNC(=O)Nc1ccc(CNC(=O)CN2CCc3cc(OC)c(OC)cc3C2Cc2ccc(OC)c(OC)c2)cc1 (stereo not drawn),HCRTR1,,,,Kd,3.68 ± 1.8 µM
Nc1ncnc2c1ncn2[C@H]1C[C@H](O)[C@@H](COP(=O)(O)OP(=O)(O)OP(=O)(O)O)O1,"DNA polymerase 3 (dpo3, Saccharolobus solfataricus, UniProt P95979, D236A)","nucleotide incorporation, pre-steady-state single turnover",,"correct incorporation, template T, added: primer-template DNA",Kd,18 ± 6 µM
CC(=O)OC1OC(OC(C)=O)[C@@H]2CCC=C[C@H]12 (stereo partly drawn),PPIA,"binding, SPR",,pH 4.5,Kd,> 10 µM
COC(=O)c1cc(Cc2ccc(NCc3ccccc3)c(C(=O)O)c2)ccc1NCc1ccccc1,PPIA,"binding, SPR",,pH 7.4,Kd,0.23 µM
COc1ccc(CC2c3cc(OC)c(OC)cc3CCN2CC(=O)NCC(N)=O)cc1OC (stereo not drawn),HCRTR1,,,,Kd,> 10 µM
CC(C)C[C@H](NC(=O)[C@H](CC(N)=O)NC(=O)[C@H](CCCNC(=N)N)NC(=O)[C@H](C)NC(=O)[C@@H](NC(=O)[C@@H]1CCCN1C(=O)[C@@H]1CCCN1C(=O)[C@@H]1CCCN1)C(C)C)C(=O)N[C@@H](CCCCN)C(=O)N1CCC[C@H]1C(=O)N[C@@H](CC(=O)O)C(=O)N[C@@H](CCCNC(=N)N)C(=O)O,GRB2,"binding, ITC",,pH 8,Kd,90 µM
NC(=O)c1ccc[n+]([C@@H]2O[C@H](COP(=O)(O)OP(=O)(O)OC[C@H]3O[C@@H](n4cnc5c(N)ncnc54)[C@H](O)[C@@H]3O)[C@@H](O)[C@H]2O)c1,"phenylacetaldehyde dehydrogenase (Pseudomonas putida, UniProt Z9OS69Y4H5)","binding, NADH displacement fluorescence",,"pH 7.0, 25 °C, added: NADH 50 µM",Kd,48.7 ± 0.8 µM
O=C1OC2(c3ccccc31)c1ccc(O)c(O)c1Oc1c2ccc(O)c1O,"Guanine nucleotide-binding protein G(I)/G(S)/G(T) subunit beta-1, with gamma subunit (Homo sapiens, UniProt P62873)","binding, SPR",,,Kd,0.325 µM
CC(C)C[C@H](NC(=O)[C@H](CC(N)=O)NC(=O)[C@H](CCCNC(=N)N)NC(=O)[C@H](CC(=O)O)NC(=O)[C@H](C)NC(=O)[C@@H]1CCCN1C(=O)[C@@H]1CCCN1C(=O)[C@@H]1CCCN1)C(=O)N[C@@H](CCCCN)C(=O)N1CCC[C@H]1C(=O)N[C@@H](CC(=O)O)C(=O)N[C@@H](CCCNC(=N)N)C(=O)O,GRB2,"binding, ITC",,pH 8,Kd,444 µM
CC[C@H](C)[C@H](NC(=O)[C@H](CCCCN)NC(=O)[C@H](CC(C)C)NC(=O)[C@H](CC(C)C)NC(=O)[C@@H]1CCCN1C(=O)[C@H](CC(C)C)NC(=O)[C@H](CCCCN)NC(=O)[C@@H]1CCCN1C(=O)[C@H](CCCNC(=N)N)NC(=O)[C@@H](NC(=O)[C@H](CCC(N)=O)NC(=O)[C@H](CC(N)=O)NC(C)=O)C(C)C)C(=O)N[C@@H](CC(C)C)C(=O)N[C@@H](Cc1c[nH]cn1)C(=O)N[C@@H](C)C(=O)N[C@@H](C)C(=O)NCC(=O)N[C@@H](C)C(=O)N[C@@H](CCC(N)=O)C(=O)N[C@@H](Cc1ccc(O)cc1)C(N)=O,"Protein S100-B (Homo sapiens, UniProt P04271)","binding, NMR line shape analysis",,"35 °C, low salt",Kd,1 ± 0.5 µM
CSc1cc(-c2ccc(F)cc2)[nH]n1,"Regulator of G-protein signaling 17 (Homo sapiens, UniProt Q9UGC6)","binding, NMR",,,Kd,5200 µM
COC(=O)[C@@H](N)CCCCN,LRP1 CR8 domain,"binding, tryptophan fluorescence titration",isolated CR8 domain,"pH 7.4, 298 K, ionic strength 0.02",Kd,180 ± 10 µM
c1ccc2nc3ccccc3cc2c1,HIV-1 nucleocapsid-SL2 RNA complex,"binding, ESI-FTMS",,pH 7.5,Kd,17.1 ± 0.4 µM
COc1cc2c(cc1OC)C(CCCc1ccccc1)N(CC(=O)NCc1ccccc1)CC2 (stereo not drawn),HCRTR1,"calcium signal, antagonist, fluorescence",,,Kb,> 10 µM
COc1ccc(CC2c3cc(OS(=O)(=O)c4ccccc4)c(OC)cc3CCN2CC(=O)NCc2ccccc2)cc1OC (stereo not drawn),HCRTR1,,,,Kd,0.0305 ± 0.0091 µM
CC1C(=O)N=C(N)N1CCCC(N)C(=O)O (stereo not drawn),"AGER (Homo sapiens, UniProt Q15109)","binding, fluorescence",,pH 6.5,Kd,0.044 µM
O=c1[nH]cnc2c1ncn2[C@@H]1O[C@H](CO)[C@@H](O)[C@H]1O,Trichomonas vaginalis,"transport, item: nucleoside transporter",,added: thymidine,Ki,78 ± 15 µM
COC(=O)[C@@H](N)Cc1c[nH]cn1,"LRP1, CR8 domain D1085A (Homo sapiens, UniProt Q07954, D1085A)","binding, tryptophan fluorescence titration",,"pH 5.5, low ionic strength",Kd,4600 ± 50 µM
COc1cc2c(cc1OC)C(Cc1ccc(OCc3ccccn3)c(OC)c1)N(CC(=O)NCc1ccccc1)CC2 (stereo not drawn),HCRTR1,"calcium signal, antagonist, fluorescence",,,Kb,0.153 µM
COc1ccc(CC2c3cc(OC)c(OC)cc3CCN2CC(=O)NCc2cccnc2)cc1OC (stereo not drawn),HCRTR1,,,,Kd,0.152 ± 0.041 µM
B1 (Rad9 754–931),"double-stranded DNA, 35 bp","DNA binding, EMSA",,"2 h, pH 8.0, 22 °C",Kd,2.07 ± 0.27 µM
COC(=O)[C@@H](N)CCCN=C(N)N,LRP1 CR8 domain,tryptophan fluorescence titration,,"pH 7.4, 298 K, CR8 domain, ionic strength 0.02",Kd,370 ± 20 µM
Nc1ncnc2c1ncn2[C@@H]1O[C@H](COP(=O)(O)OP(=O)(O)OP(=O)(O)O)[C@@H](O)[C@H]1O,"MAP2K1 (Homo sapiens, UniProt Q02750)",,,,Kd,8.1 µM
CC(C)C[C@@H](NC(=O)[C@H](NC(=O)[C@@H](CC(=O)O)NC(=O)[C@H](NC(=O)[C@@H](CC(=O)O)NC(=O)c1ccc(S(N)(=O)=O)cc1)C(C)C)C(C)C)C(N)=O,"CA2 (Homo sapiens, UniProt P00918)","binding, SPR",,,Kd,0.082 µM
N=C(N)c1ccc(NCCCNc2ccc(C(=N)N)cc2)cc1,CTG·CAG repeat hairpin DNA,fluorescence titration,,11 CTG·CAG repeats,Kd,2.7 ± 0.4 µM
COc1ccc(CC2c3cc(OCCN4CCCCC4)c(OC)cc3CCN2CC(=O)NCc2ccccc2)cc1OC (stereo not drawn),HCRTR1,,,,Kd,8.04 ± 5.4 µM
NC[C@H]1O[C@H](O[C@H]2[C@H](O)[C@@H](O[C@H]3O[C@H](CO)[C@@H](O)[C@H](N)[C@H]3O)[C@H](N)C[C@@H]2N)[C@H](N)C[C@@H]1O,HIV-1 SL3 RNA stem-loop,"binding, ESI-FTMS titration",,pH 7.5,Kd,38.7 ± 3.7 µM
COCc1c(C(C)C)nc(C(C)C)c(/C=C/[C@@H](O)C[C@@H](O)CC(=O)O)c1-c1ccc(F)cc1,"Cytochrome P450 2C8 (CYP2C8, Homo sapiens, UniProt P10632)","ligand binding, equilibrium spectral binding",purified protein,"pH 7.4, 25 °C, high-affinity site, 1% CHAPS",Kd,0.4 ± 0.2 µM

# Some of these lines once more:
Substance,tested on,assay,test system,conditions,endpoint,result
COc1ccc(CC2c3cc(OS(=O)(=O)c4ccccc4)c(OC)cc3CCN2CC(=O)NCc2ccccc2)cc1OC (stereo not drawn),HCRTR1,,,,Kd,0.0305 ± 0.0091 µM
COc1ccc(CC2c3cc(OC)c(OC)cc3CCN2CC(=O)NCc2ccc(N(C)C)cc2)cc1OC (stereo not drawn),HCRTR1,,,,Kd,3.23 ± 1.3 µM
B1 (Rad9 754–931),"double-stranded DNA, 35 bp","DNA binding, EMSA",,"2 h, pH 8.0, 22 °C",Kd,2.07 ± 0.27 µM
